Measured values of several laboratories.
Compare with care: the assays were run in different laboratories. ± marks the error that the study gave.

For `CSCC[C@H](NC(=O)[C@H](CC(C)C)NC(=O)[C@H](Cc1c[nH]cn1)NC(=O)CNC(=O)[C@@H](NC(=O)[C@H](C)NC(=O)[C@H](Cc1c[nH]c2ccccc12)NC(=O)[C@H](CCC(N)=O)NC(=O)CCCCCCCNC(=O)[C@@H](CO)NC(=O)[C@@H](CO)NC(=O)[C@@H](CO)NC(=O)CN1CCN(CC(=O)O)CCN(CC(=O)O)CCN(CC(=O)O)CC1)C(C)C)C(N)=O` [indium-111 labelled], “hypoxia enhancement factor” read 1.17 ± 0.12 (PC-3; 8 h; relative to: hypoxic over normoxic).
`COC(=O)C1=CO[C@@H](OC(C)=O)[C@@H]2C(Cn3cc(CCN4C(=O)c5ccccc5C4=O)nn3)=CC[C@H]12` has a viability of 60.8 ± 1.6% (SK-N-SH; neuroprotection, MTT; 0.3 µM, 24 h, together with: 250 µM H2O2).
The selectivity index of `C[C@@H]1O[C@H]2O[C@@H]3C4(O)C(=O)c5cccc(O)c5C(=O)C4(O)O[C@]3(C)[C@]21O` (some centres unmarked) is reported as 3.02 (MDA-MB-231 and HFF; MTT; relative to: CC50 HFF over EC50 MDA-MB-231).
`COC(=O)C1=CO[C@@H](OC(C)=O)[C@@H]2C(Cn3cc(C4(O)CCCCC4)nn3)=CC[C@H]12` gave a viability of 75.1 ± 0.9% (SK-N-SH; neuroprotection, MTT; 0.075 µM, 24 h, together with: 250 µM H2O2).
The SILAC ratio of `CC(C)CC(O)(CC(C)C)c1cn(C(=O)N2CCCC2)nn1` is reported as 2.36 ± 0.5 (mouse T-cells; N-terminal labelling enrichment, measured: TFG N-terminal peptides; 1 nM, 6 h, protein median; relative to: DMSO).
Under “fold reversal of IC50”, `COC1CC(OC2CCC3(C)C(CCC45OC46CCC(C(C)=O)C6(C)C(OC(C)=O)C(OC(=O)c4ccccc4)C35)C2)OC(C)C1OC1OC(C)C(OC2OC(CO)C(O)C(O)C2O)C(OC)C1O` (centres unmarked) is recorded as 1 (MDA435/LCC6-MDR1; cell growth, MDR reversal, SRB; 10 µM, together with: paclitaxel; relative to: paclitaxel alone over combination).
The IC50 of `Cc1cc(C)c(-n2ccn(-c3c(C)cc(C)cc3C)c2=[Se])c(C)c1.[Cl][Au]` is reported as 2.8 µM (A-431; cell growth or viability, MTT; 72 h).
The viability of `COC(=O)C1=CO[C@@H](OC(C)=O)[C@@H]2C(Cn3cc(CON4C(=O)c5ccccc5C4=O)nn3)=CC[C@H]12` is reported as 66.4 ± 0.1% (SK-N-SH; neuroprotection, MTT; 0.3 µM, 24 h, together with: 250 µM H2O2).
`CC(C)(C)c1ccc(Nc2c3c(nc4ccccc24)CCCC3)cc1` gave a viability of 63.14 ± 0.44% (SH-SY5Y; MTT; 50 µM, 1 h pretreatment, 10% FBS, together with: H2O2).
With `CC(C)C[C@H](NC(=O)[C@H](CC(C)C)NC(=O)[C@H](CCC(=O)O)NC(=O)[C@H](CCC(=O)O)NC(=O)[C@H](CC(C)C)NC(=O)[C@H](Cc1c[nH]cn1)NC(=O)[C@H](Cc1c[nH]cn1)NC(=O)[C@H](CC(C)C)NC(=O)[C@H](CC(C)C)NC(=O)[C@H](CCC(=O)O)NC(=O)[C@H](CCC(=O)O)NC(=O)[C@@H](N)CC(C)C)C(=O)N[C@@H](Cc1c[nH]cn1)C(=O)N[C@@H](Cc1c[nH]cn1)C(N)=O` the IC50 was over 100 µM (RG; cell viability, MTT; 0.5 h, pH 6.0).
`CCOP(=O)(OCC)OCCCCOC(=O)CC1=C(C)C(=Cc2ccc([S+](C)[O-])cc2)c2ccc(F)cc21` (centres unmarked) has an apoptosis increase of over 2 fold (A549 EGFR-knockdown; Annexin V/PI staining; 95 µM, 24 h; relative to: mock-transfected cells).
`Nc1ccc(Nc2c(NC3CCN(Cc4ccccc4)CC3)c(=O)c2=O)cc1` has a cell survival of 80.1% (SH-SY5Y; neuroprotection, MTT; 12.5 µM, 24 h pretreatment, together with: H2O2 650 µM for 4 h).
With `COC(=O)C1=CO[C@@H](O)[C@@H]2C(Cn3cc(CN4C(=O)c5ccccc5C4=O)nn3)=CC[C@H]12` the viability was 70.1 ± 1.5% (SK-N-SH; neuroprotection, MTT; 0.075 µM, 24 h, together with: 250 µM H2O2).
For `CCC[P+](c1ccccc1)(c1ccccc1)c1ccccc1`, the GI50 was 4.08 µM (SK-OV-3; cell growth or viability, MTT; 72 h).

Some of these lines once more:
`COC(=O)C1=CO[C@@H](OC(C)=O)[C@@H]2C(Cn3cc(C4(O)CCCCC4)nn3)=CC[C@H]12` gave a viability of 75.1 ± 0.9% (SK-N-SH; neuroprotection, MTT; 0.075 µM, 24 h, together with: 250 µM H2O2).
